Measurements gathered from unrelated publications.
Numbered parts are unrelated; each lists some results of a single study. Changes are numbered by the printed parent chain.

Sample 1
Target: PABPC1L2, full length, GST fusion (mouse, UniProt A0ABA7IW68)
Technique: RNAcompete
Form: RNA
Matrix: in vitro
Concentration: 20 nM
Setting: 7-mer, probes averaged, single round
Relative to: mean of 7-mers
Direction: higher = stronger binding
Residues (chain): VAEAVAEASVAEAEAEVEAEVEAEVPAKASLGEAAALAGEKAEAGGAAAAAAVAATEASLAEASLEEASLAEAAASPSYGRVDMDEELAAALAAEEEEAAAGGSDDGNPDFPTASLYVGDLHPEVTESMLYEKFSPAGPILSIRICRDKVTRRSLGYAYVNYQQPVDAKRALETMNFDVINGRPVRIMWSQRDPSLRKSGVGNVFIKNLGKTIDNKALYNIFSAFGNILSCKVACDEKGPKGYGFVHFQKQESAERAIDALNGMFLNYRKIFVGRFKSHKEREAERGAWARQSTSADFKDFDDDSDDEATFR
Oligonucleotide | 7-mer Z-score
CAGCGAC | 0.0261
UCUUUGG | -0.338
GGAGUUG | -0.0645
AGGUCCU | -0.289
CCCGCCG | -0.447
AACAUCC | 0.0261
UGCCGCA | -0.26
CCUAGAC | -0.213
GGACCCC | -0.224
GAGUGCC | -0.217
GGCAAUC | 0.204
CGAGGGG | 0.144
GCCAGUG | -0.24
AGUGUCG | -0.00289
UCUUACU | -0.327
AGGCGAA | 0.483
UCGUUUU | -0.574
CGCGCGC | -0.463
CCAGCUC | -0.228
CGCUAGA | -0.0446
UUGGCCA | -0.217
AGUACGU | -0.208
ACGUCAG | -0.168
CAUUCUU | -0.228
CUUAGAC | -0.199

Sample 2
Target: RNA binding protein fox-1 homolog 2, RRM domain, GST-SBP tag (RBFOX2, Homo sapiens, UniProt O43251-10, residues 100-194)
Technique: RNA Bind-n-Seq
Form: RNA
Matrix: in vitro
Concentration: 365 nM
Setting: natural RNA segment, single round, ends assumed
Relative to: no-protein control
Direction: higher = stronger binding
Constant ends, left off below: GGGAGUUCUACAGUCCGACGAUC … UGGAAUUCUCGGGUGCCAA
Construct (chain): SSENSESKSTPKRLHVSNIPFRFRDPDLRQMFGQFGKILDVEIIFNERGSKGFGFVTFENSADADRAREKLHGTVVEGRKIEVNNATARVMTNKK
Oligonucleotide | RBNS enrichment (R)
CUUUGGAUUAGAAAAGGCUUAUGUUAGCAACCUCAGAGACUUGAGCCCUGCUAAGUGACUGACCACUGUUUAGAAUGUCCAGAAUCUGAUGUCCAUCUGUCCCUGUGUCU | 0.704
GGUUAUGUCUAUGUUCAUUCUAUAGAAGAAAUGCAAACUAUCACUGUAUUUUAAUAUUUGUUAUUCUCUCAUGAAUAGAAAUUUAUGUAGAAGCAAACAAAAUACUUUUA | 0.653
UCUUCUCUACUGCCCCAACUAUUGUGUGGCCUCUUGUGCUGAAAUCUCUGGCUUCAGAGCCUGAAACAAAGAGAAACAGGAUCUGUCUCUACCCAGCACAGCAAAUGGUU | 0.392
UUUUUUAAAAUACAUGAAAAAUGUAGUAAAUCACUAAAAUUCAUUUAUCCUUCUCCUUUGAAAGAUUUUCAAUAUUUUAGUAUAAUAAAGAGCUGUAUGUUGAGCCAUCU | 0.334
GCUCCCUCCUGACCACGGAGGCUCCACUGGUGGUGCCACAUGGGAAACAUCUACUUCUCAGUCUAAGGCACACUAAGUACUAGUAGCAAGCCUGUGAGCCUAGGAGACUG | 0.435
AGCAAAGCAUCUAUCUAUUCUGAAUCAUGUUUGGAAAUAAAAUUGCUCCAUCUGGGAAUGUGCUUUCUUUUCCCGUCUCAUUUUCUGUUUCCCAUUUGAAAACAGUGUUC | 1.19
CGGUGGUGGUGGAUAGCAUCACAAGAAACGAGCCUGAAAAUCAGGUCCAGCCGGUCCAAGCACAUGGCCUCCCAUCUGGGAGAGCCCACUGUCCCACUCCCACAUGUCUG | 0.332
GCGUCAAGAGCAGUUGACUCACUGAUGAAGGCCCUGGUGAGGAGAAAGCACUCUGUUCUUCGCCUACUCUGUAAUCGUUUUGUCAUAAUGAGCCAUGAAAAAAGUAAUGA | 1.4

Sample 3
Target: CCNB3, cyclin fold, Cln2 fusion (human)
Technique: yeast growth competition, sequencing
Matrix: yeast
Setting: weak parent motif
Relative to: not given
Direction: higher = stronger binding
Starting sequence: SLBP docking peptide (human); ARYKRKLLINDFG
Variant | normalised enrichment score
ARYKRKLLINDFN [G13N] | -0.307
ARYKRKLLINDFV [G13V] | 0.483
ARYYRKLLINDFG [K4Y] | 0.369
ARYKRVLLINDFG [K6V] | 0.457
ARYKRKHLINDFG [L7H] | 0.233
ARYKRKQLINDFG [L7Q] | -0.0227
ARYKRRLLINDFG [K6R] | -0.228
ARPKRKLLINDFG [Y3P] | 0.141
ARYKAKALINDFG [R5A L7A] | 0.164
SRYKRKLLINDFG [A1S] | 0.346
ARYKRKYLINDFG [L7Y] | 0.283
ARYKRKLLIGDFG [N10G] | 0.864
ARYKRKLLINPFG [D11P] | 1.06
ARYKRKLLINCFG [D11C] | -0.0232
ARYNRKLLINDFG [K4N] | 0.501
ARYKRKLDINDFG [L8D] | -0.0304
ARYKRKLLIEDFG [N10E] | 0.378
PRYKRKLLINDFG [A1P] | 0.33
ARYKRKLLINDPG [F12P] | -0.0157
ARYKRKLLINDRG [F12R] | 0.28
ARYKRKLEINDFG [L8E] | 0.554
ARYKRDLLINDFG [K6D] | -0.326
ARYKRKLLQNDFG [I9Q] | -0.168
ARYKRKLLINDFY [G13Y] | 0.537
VRYKRKLLINDFG [A1V] | 0.321

Sample 4
Target: Sal-like protein 4, full length isoform A (SALL4, Homo sapiens, UniProt Q9UJQ4, residues 1-1053)
Chain of UniProt Q9UJQ4 (whole entry, looked up): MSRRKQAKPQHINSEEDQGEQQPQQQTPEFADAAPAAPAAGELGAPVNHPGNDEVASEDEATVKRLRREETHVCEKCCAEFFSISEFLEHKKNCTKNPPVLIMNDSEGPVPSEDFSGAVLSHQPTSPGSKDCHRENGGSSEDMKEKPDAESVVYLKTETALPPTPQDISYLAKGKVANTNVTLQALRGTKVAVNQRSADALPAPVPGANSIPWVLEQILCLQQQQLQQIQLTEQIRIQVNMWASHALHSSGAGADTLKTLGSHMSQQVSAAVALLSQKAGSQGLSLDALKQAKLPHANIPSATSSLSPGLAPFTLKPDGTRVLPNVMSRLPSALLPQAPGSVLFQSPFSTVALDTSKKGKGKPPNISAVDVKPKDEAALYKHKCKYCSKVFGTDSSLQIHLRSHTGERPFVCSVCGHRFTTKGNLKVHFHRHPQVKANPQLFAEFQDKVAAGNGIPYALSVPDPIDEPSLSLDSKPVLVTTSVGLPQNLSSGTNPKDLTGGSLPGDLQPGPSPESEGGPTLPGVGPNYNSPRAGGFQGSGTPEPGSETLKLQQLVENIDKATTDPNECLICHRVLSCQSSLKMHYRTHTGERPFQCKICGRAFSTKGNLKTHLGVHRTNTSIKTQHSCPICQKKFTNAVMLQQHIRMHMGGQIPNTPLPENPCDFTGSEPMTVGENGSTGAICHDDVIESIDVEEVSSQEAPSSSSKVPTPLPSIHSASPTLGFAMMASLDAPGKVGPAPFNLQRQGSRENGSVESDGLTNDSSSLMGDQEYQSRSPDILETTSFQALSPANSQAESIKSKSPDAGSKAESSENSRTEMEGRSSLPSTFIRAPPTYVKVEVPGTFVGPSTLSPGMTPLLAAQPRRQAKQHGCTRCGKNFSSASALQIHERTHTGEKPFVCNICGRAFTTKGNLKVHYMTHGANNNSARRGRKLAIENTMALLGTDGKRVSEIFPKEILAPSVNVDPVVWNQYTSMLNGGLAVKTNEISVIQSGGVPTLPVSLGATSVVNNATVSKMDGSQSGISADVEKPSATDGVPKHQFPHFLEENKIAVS
Technique: universal PBM
Form: double-stranded DNA, one strand shown
Matrix: in vitro
Concentration: 600 nM
Setting: 8-mer, flanks averaged, mean of replicates
Direction: higher = stronger binding
Oligonucleotide | E-score
AAATGGGG | -0.0372
AGCTCGGA | -0.261
ACTAGTAA | 0.248
CGTAACGA | -0.0661
CTCATCTA | 0.0698
ACAAACGA | 0.0613
GGAACAAA | 0.191
GATTGGAA | -0.0261
AACGCAAT | 0.221
CCGTATCA | 0.0372
CCTTTCAC | 0.00111
AATTGAGT | 0.162
AGGTTTTC | 0.143
ACTTTATG | 0.269
TCACTGGA | 0.0236
ATTCGCTC | 0.116
GTTGATGA | 0.163
GTATAGAA | 0.162
CAGGATGC | -0.237
AGTCCCCA | -0.243
CCTAGAAA | 0.0761
TGTCAACA | 0.157
GGGAGGAC | -0.184
TCCGGCGA | -0.168
ATCGCCTG | -0.313

Some of these lines once more (sample 3):
Variant | normalised enrichment score
ARYKRKHLINDFG [L7H] | 0.233
ARYKRKQLINDFG [L7Q] | -0.0227
ARYKRRLLINDFG [K6R] | -0.228
ARPKRKLLINDFG [Y3P] | 0.141
ARYKAKALINDFG [R5A L7A] | 0.164
SRYKRKLLINDFG [A1S] | 0.346
